Measurements collected from several papers.
Each numbered part is a random draw from the data of one study; scales do not carry over between parts. Positions count from the first letter of the parent shown.

Block 1
Target: CCNF, cyclin fold, Cln2 fusion (human)
Technique: yeast growth competition, sequencing
Matrix: yeast
Setting: weak parent motif
Reference: not given
Reading: higher = stronger binding
Starting sequence: PKN2 docking peptide (human); VSAVQKLDFSDTM
For `K6V`, “normalised enrichment score” read 0.954.
Under “normalised enrichment score”, `V1S` is recorded as 0.489.
Under “normalised enrichment score”, `M13K` is recorded as 0.339.
`D11Q` — result for “normalised enrichment score”: 0.668.
`D8C`: “normalised enrichment score” 0.71.
`T12W` — result for “normalised enrichment score”: 1.5.
`V1C`: “normalised enrichment score” 1.74.
For `M13R`, “normalised enrichment score” read 0.655.
Under “normalised enrichment score”, `L7C` is recorded as 0.361.
`V4N`: “normalised enrichment score” -0.385.
For `D8H`, “normalised enrichment score” read 0.423.
Under “normalised enrichment score”, `S10V` is recorded as 0.264.
For `S2A`, “normalised enrichment score” read 0.953.
`S10N`: “normalised enrichment score” 0.0703.
`L7E`: “normalised enrichment score” 0.0617.
`T12C`: “normalised enrichment score” 0.887.
`T12D`: “normalised enrichment score” -0.363.

Block 2
Target: Sal-like protein 4, full length isoform A (SALL4, Homo sapiens, UniProt Q9UJQ4, residues 1-1053)
UniProt Q9UJQ4, sequence (whole entry, looked up): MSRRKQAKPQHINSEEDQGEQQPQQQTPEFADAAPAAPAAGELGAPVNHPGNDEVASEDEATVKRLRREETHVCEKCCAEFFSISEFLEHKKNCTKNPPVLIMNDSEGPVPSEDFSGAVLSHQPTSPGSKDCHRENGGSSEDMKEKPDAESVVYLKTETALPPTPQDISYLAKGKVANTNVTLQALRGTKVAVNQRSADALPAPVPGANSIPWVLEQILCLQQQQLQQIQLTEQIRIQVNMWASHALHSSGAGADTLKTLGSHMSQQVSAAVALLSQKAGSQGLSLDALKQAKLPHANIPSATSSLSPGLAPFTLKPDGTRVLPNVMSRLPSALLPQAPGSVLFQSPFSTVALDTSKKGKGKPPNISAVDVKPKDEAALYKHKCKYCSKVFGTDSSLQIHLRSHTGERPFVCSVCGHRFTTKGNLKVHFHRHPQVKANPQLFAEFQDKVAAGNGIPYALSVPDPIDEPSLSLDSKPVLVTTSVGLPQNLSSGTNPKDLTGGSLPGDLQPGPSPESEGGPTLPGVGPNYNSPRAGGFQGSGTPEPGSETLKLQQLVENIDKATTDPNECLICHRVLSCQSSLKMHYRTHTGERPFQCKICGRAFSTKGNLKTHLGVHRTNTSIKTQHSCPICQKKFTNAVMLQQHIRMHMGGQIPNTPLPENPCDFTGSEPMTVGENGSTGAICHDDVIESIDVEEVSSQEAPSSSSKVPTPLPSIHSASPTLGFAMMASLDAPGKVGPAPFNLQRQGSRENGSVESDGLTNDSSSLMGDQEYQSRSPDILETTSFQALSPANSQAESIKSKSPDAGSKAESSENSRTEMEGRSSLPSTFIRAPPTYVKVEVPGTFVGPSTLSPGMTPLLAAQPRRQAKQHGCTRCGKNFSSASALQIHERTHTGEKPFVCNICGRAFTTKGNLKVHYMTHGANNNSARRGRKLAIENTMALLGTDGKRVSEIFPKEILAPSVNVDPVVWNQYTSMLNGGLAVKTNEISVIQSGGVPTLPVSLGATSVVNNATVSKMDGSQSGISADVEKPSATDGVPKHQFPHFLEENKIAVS
Technique: universal PBM
Form: double-stranded DNA, one strand shown
Matrix: in vitro
Concentration: 600 nM
Setting: 8-mer, flanks averaged, mean of replicates
Reading: higher = stronger binding
The E-score of `GTGGTACA` is reported as 0.00844.
For `AGACTAAC`, the E-score was 0.0234.
The E-score of `GCTTGTGA` is reported as -0.122.
`CTGCAGAA` gave an E-score of 0.0442.
`AGGTCGTA` gave an E-score of 0.055.
For `GATCGGAC`, the E-score was -0.0935.
The E-score of `ATCGCAGA` is reported as 0.0198.
`ACCACCGT` gave an E-score of -0.22.
`GAGCAAAC` gave an E-score of 0.00168.
`CGCGGAAA` gave an E-score of -0.175.
`CAGGGTGC` has an E-score of -0.338.
`ATAATCGA` gave an E-score of 0.279.
`ACTGCGAT` has an E-score of -0.0405.
`AAAGAGTG` gave an E-score of -0.0256.
With `GGGCCCAC` the E-score was -0.356.
`AATATTTG` gave an E-score of 0.422.
The E-score of `CCCCGTAG` is reported as -0.266.
The E-score of `TCACTTCA` is reported as 0.0297.
With `CCTTCGTC` the E-score was -0.0484.
`ATGCGACA` gave an E-score of 0.0455.
For `GACCTAAC`, the E-score was -0.109.
`ACGCCGCA` gave an E-score of -0.206.
For `CTAGTCGA`, the E-score was -0.0087.

Block 3
Target: RNA binding protein fox-1 homolog 2, RRM domain, GST-SBP tag (RBFOX2, Homo sapiens, UniProt O43251-10, residues 100-194)
Technique: RNA Bind-n-Seq
Form: RNA
Matrix: in vitro
Concentration: 365 nM
Setting: natural RNA segment, single round, ends assumed
Reference: no-protein control
Reading: higher = stronger binding
Target sequence (chain): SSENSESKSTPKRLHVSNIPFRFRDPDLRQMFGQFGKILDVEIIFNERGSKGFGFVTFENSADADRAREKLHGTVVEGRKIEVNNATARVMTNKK
`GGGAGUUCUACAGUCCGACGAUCCUGUGUGAAGCUUUCAAGAGCUUGGUACUUCCCAGGGCUACCGGCAGUCCUCUGUAGUCCAGAGAGGUGAGAUUAGAUCUUCUUGGUUCCCUGUGAGGUUUCAGGCACUAUGGAAUUCUCGGGUGCCAA`: “RBNS enrichment (R)” 0.3.
Under “RBNS enrichment (R)”, `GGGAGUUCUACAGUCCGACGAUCCCGUGUAGACAUAGUGUACUCAGCAGAUGUAGAAUGUGAGCUCAUCAGCCUUGGCCUGGCUGAAACAGGCUUGCAUCCAACGUGAGACCGACAGACGGACAGACGGACAGUGGAAUUCUCGGGUGCCAA` is recorded as 0.393.
`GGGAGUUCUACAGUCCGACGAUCAACUGAUGUUCUGUGUCUUCACACCCUGGCAUGACAGUUACGUGUGGUCAGCCCGCUCCCCAGGCCCGUCCCUGCCGCCGCCAGGUGUGGGCUCUAGGCAGGCCGACAAGUGGAAUUCUCGGGUGCCAA` — result for “RBNS enrichment (R)”: 0.281.
`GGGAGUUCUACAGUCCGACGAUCAAGAGAAUUGCAGGGUCUUCUGCCCCUUUUCUAUCUGCCUGUAGCUCUCCAUUUUGAUUAAAUAGUUCAUUGCAUUCUGAAGUUUGGGGAUGUUUUUUCUUUCCUUUUCUUGGAAUUCUCGGGUGCCAA` — result for “RBNS enrichment (R)”: 1.86.
`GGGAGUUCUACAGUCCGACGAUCAGUUUAAAUGGAUUACAUUUGGUGUAUAUUGUCUUCAUUGAAAAGAUAUUGUUGGAUAUGCCACAUCAGAGUUAGCAUUGACUUAUAAAUAAAUACCAGAAUUUACCAGAUGGAAUUCUCGGGUGCCAA` — result for “RBNS enrichment (R)”: 1.08.
Under “RBNS enrichment (R)”, `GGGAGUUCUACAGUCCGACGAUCUGGAAGUUCUGCCACUGUACUCUGGAAAUCCUGUCCUCACCUUGCCCUUCCCUGAGCAUCCGACUCUUCCAGCAACAAUUCUGUUGGAUUUAAGGCCAAGGGCCAGUGGGUGGAAUUCUCGGGUGCCAA` is recorded as 0.501.
`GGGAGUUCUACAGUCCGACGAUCCAGCAUGGAGCCCUCGGCUCCCCAGACUUUGCCGAGGGGCUGCUCCGGACCCCGUUGUGAGCCGGCCUCCUGUCUGCAUGCCCCCUGUGGCCACCAGGCUCCGAGGGGCCUGGAAUUCUCGGGUGCCAA` — result for “RBNS enrichment (R)”: 2.93.
For `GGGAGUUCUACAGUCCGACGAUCUCCUAUGAAACAGUCCACUGGCAGGCUGGAGAUAUCUUACACUUUGAAGUUAUAUAUAUAUAAAACAAGUGUCUAUUUCUAGCUGAAAGAGUUUACCUCUUCUAGACAUUUGGAAUUCUCGGGUGCCAA`, “RBNS enrichment (R)” read 0.364.

Block 4
Target: Prothrombin, mature alpha-thrombin (F2, Homo sapiens, UniProt P00734)
Technique: aptamer microarray, sandwich
Form: DNA with 2'F-ANA
Matrix: in vitro
Concentration: 200 nM
Setting: whole 15-mer aptamer, many near background
Together with: Cy3 exosite-II aptamer, 400 nM
Reading: higher = stronger binding
Sequence: GGTTGGTGTGGTTGG
Under “mean fluorescence intensity”, `2'F-ANA at 1 3 4 6 8 11` is recorded as 184 a.u.
`2'F-ANA at 3 4 5 9 12 14 15`: “mean fluorescence intensity” 55 a.u.
Under “mean fluorescence intensity”, `2'F-ANA at 2 3 4 6 7 9 11 12 14 15` is recorded as 220 a.u.
Under “mean fluorescence intensity”, `2'F-ANA at 1 3 4 6 8 9 13 14 15` is recorded as 61.1 a.u.
Under “mean fluorescence intensity”, `2'F-ANA at 1 3 4 5 9 12 13 14 15` is recorded as 48.6 a.u.
For `2'F-ANA at 1 3 4 6 7 11 14 15`, “mean fluorescence intensity” read 63.8 a.u.
`2'F-ANA at 1 2 3 4 8 10 13` — result for “mean fluorescence intensity”: 53.1 a.u.
For `2'F-ANA at 1 2 4 6 7 9 13 14 15`, “mean fluorescence intensity” read 55.1 a.u.
For `2'F-ANA at 3 5 7 14 15`, “mean fluorescence intensity” read 105 a.u.
Under “mean fluorescence intensity”, `2'F-ANA at 1 3 9 10 12` is recorded as 113 a.u.
`2'F-ANA at 1 7 9`: “mean fluorescence intensity” 228 a.u.
`2'F-ANA at 1 2 4 5 7 9 14` — result for “mean fluorescence intensity”: 48 a.u.
Under “mean fluorescence intensity”, `2'F-ANA at 2 5 7 8 9 10 11 12 13 15` is recorded as 50.3 a.u.
For `2'F-ANA at 1 11 12 14 15`, “mean fluorescence intensity” read 73.5 a.u.
Under “mean fluorescence intensity”, `2'F-ANA at 1 4 5 6 8 11 12 13 14` is recorded as 47.9 a.u.
`2'F-ANA at 1 4 6 7 9 15` — result for “mean fluorescence intensity”: 107 a.u.
Under “mean fluorescence intensity”, `2'F-ANA at 2 6 7 9 11 15` is recorded as 266 a.u.
`2'F-ANA at 1 9 14`: “mean fluorescence intensity” 152 a.u.
`2'F-ANA at 3 4 7 8 9 12 13 14 15` — result for “mean fluorescence intensity”: 359 a.u.
Under “mean fluorescence intensity”, `2'F-ANA at 2 5 6 8 11 13 15` is recorded as 57.8 a.u.
`2'F-ANA at 1 3 9 11 12 13 15` — result for “mean fluorescence intensity”: 357 a.u.
`2'F-ANA at 1 6 9 10 11 12 14` — result for “mean fluorescence intensity”: 48.7 a.u.

Repeated from above (block 1):
`V4N`: “normalised enrichment score” -0.385.
For `K6V`, “normalised enrichment score” read 0.954.
`L7E`: “normalised enrichment score” 0.0617.
`D11Q` — result for “normalised enrichment score”: 0.668.
For `S2A`, “normalised enrichment score” read 0.953.
`D8C`: “normalised enrichment score” 0.71.
For `D8H`, “normalised enrichment score” read 0.423.
`T12W` — result for “normalised enrichment score”: 1.5.
